# Results from different studies.
# Each numbered part is a random draw from the data of one study; scales do not carry over between parts.

# Sample 1
# Target: Ras GTPase-activating protein-binding protein 1, C-terminal RGG region (G3BP1, Homo sapiens, UniProt Q13283)
# Sequence of UniProt Q13283 (whole entry, looked up): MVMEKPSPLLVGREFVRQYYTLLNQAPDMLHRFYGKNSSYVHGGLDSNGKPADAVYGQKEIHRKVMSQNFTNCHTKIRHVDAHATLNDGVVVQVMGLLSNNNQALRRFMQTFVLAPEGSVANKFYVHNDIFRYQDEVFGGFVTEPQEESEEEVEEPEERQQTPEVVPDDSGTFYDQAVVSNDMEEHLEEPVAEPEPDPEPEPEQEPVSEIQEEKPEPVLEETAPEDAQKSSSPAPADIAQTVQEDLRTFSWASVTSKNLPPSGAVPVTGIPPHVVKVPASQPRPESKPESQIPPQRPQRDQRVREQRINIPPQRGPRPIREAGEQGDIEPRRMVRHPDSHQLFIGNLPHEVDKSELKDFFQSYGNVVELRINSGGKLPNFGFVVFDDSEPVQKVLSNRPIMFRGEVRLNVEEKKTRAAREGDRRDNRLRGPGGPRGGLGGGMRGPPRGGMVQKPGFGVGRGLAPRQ
# Method: RNA Bind-n-Seq
# Molecule type: RNA
# Sample: in vitro
# Concentration: 1 µM
# Notes: whole 134-nt RNA, ends assumed
# Added: 150 mM KCl
# Baseline: input library
# Direction: higher = stronger binding
# All sequences stand within: GGGAGUUCUACAGUCCGACGAUC … UGGAAUUCUCGGGUGUCAAGG
Strand,log2 enrichment
UAACUUUAGAGGAGGAUCUGAUGGAUAUGGCAGUGGACGUGGAUUUGGGGAUGGCUAUUAUGGGUAUGGAGGAGGACCUGGAGGUGGCAA,-0.89
UCCUCAAGUCCUGUGCUACACAUCGUAUGUACCGAAUCGGGCGGGCGGGCGGAAAGUAUUAUGUUACGCCGUUCGGAUCUGCACUUCCAG,1.98
CAAGUCCUGUGCUACACAUCGUAUGUACCGAAUCGGCCCGGGGCCCGGGCCCGGGGAAAGUAUUAUGUUACGCCGUUCGGAUCUGCACUU,-1.86
CUCAAGUCCUGUGCUACACAUCGUAUGUACCGAAUCGGCCGGGGCCGGGCCGGGAAAGUAUUAUGUUACGCCGUUCGGAUCUGCACUUCC,-1.3
UUGUGAGAGCCACAGGAAAAGCAAGAAGGAGAAGAAGAAAAAGAAAAAGAGGAAACACAAGAAAGAGAAGAAGAAGAAAGACAAAGAGCA,-0.735
CAAGUCCUGUGCUACACAUCGUAUGUACCGAAUCGGUUUGGGGUUUGGUUUGGGGAAAGUAUUAUGUUACGCCGUUCGGAUCUGCACUUC,-0.862

# Sample 2
# Target: Sal-like protein 4, full length isoform A (SALL4, Homo sapiens, UniProt Q9UJQ4, residues 1-1053)
# Sequence of UniProt Q9UJQ4 (whole entry, looked up): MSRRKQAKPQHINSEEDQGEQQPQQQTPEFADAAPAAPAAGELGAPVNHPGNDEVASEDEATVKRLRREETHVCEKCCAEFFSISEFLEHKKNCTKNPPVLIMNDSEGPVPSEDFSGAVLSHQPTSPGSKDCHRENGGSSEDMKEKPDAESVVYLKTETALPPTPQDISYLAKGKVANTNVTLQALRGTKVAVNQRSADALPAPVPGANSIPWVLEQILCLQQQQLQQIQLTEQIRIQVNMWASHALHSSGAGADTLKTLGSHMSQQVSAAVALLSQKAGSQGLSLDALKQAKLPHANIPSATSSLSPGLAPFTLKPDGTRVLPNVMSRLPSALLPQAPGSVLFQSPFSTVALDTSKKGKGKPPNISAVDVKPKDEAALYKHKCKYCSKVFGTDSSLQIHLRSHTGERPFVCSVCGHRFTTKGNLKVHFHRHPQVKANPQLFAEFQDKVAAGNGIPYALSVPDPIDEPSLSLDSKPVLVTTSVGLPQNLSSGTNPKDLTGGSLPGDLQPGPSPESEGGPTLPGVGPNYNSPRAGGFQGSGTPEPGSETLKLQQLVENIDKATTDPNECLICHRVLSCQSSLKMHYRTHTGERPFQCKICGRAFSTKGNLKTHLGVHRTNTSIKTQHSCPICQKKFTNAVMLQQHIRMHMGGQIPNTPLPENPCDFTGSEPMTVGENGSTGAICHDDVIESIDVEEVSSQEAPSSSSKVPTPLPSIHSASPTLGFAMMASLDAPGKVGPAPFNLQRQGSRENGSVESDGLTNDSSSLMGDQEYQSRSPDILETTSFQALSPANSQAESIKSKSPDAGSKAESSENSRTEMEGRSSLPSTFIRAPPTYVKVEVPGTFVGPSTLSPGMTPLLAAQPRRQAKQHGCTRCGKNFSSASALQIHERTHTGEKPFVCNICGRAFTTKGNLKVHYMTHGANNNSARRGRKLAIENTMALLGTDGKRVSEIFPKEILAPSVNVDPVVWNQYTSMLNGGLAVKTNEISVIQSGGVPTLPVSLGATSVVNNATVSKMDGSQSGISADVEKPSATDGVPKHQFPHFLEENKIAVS
# Method: universal PBM
# Molecule type: double-stranded DNA, one strand shown
# Sample: in vitro
# Concentration: 600 nM
# Notes: 8-mer, flanks averaged, mean of replicates
# Direction: higher = stronger binding
Strand,E-score
GCCCACCC,-0.136
GCGGTGAA,-0.142
AAAACGGA,0.0391
CACTGCAG,-0.0791
CCACCTTC,-0.202
ACGTACCC,-0.166
TCGATGAA,0.172
AGAACCTC,-0.1
AATGCGGT,-0.169
GAATCTAA,0.0389

# Sample 3
# Target: Histone acetyltransferase KAT6A, winged helix 2, GST fusion (KAT6A, Homo sapiens, UniProt Q92794, residues 85-181)
# Method: protein binding microarray
# Molecule type: double-stranded DNA, one strand shown
# Sample: in vitro
# Concentration: not given
# Notes: 8-mer, flanks averaged, mean of 2 arrays, mostly near background
# Baseline: not given
# Direction: higher = stronger binding
# Residues (chain): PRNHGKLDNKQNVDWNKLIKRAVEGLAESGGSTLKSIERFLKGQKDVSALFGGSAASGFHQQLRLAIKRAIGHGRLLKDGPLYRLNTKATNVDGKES
Strand,E-score
ACCGGATG,0.189
CAGTTTGC,0.0447
CAGGCGCA,0.179
CCGGCTAG,0.146
AGTGGGAT,0.00611
CTGGTCCA,-0.0709
TCGCCAGA,0.168
GACAGAGA,-0.0576

# Mixed results
Molecule,target,test,system,setting,how to read,measurement,result
"PhoQ, residues 284 288 289 292 302 303 SVTLVV","PhoP, residues 12 14 15 18 19 TQAIL (Escherichia coli, UniProt P23836)","Sort-seq, measured: YFP reporter",E. coli,"PhoQ-PhoP variant library, added: 10 µM Mg2+","baseline: high Mg2+ state, higher = stronger signaling",fold induction,17.1
